{"data": "Assay results from different studies", "note": "Numbered parts are unrelated; each lists some results of a single study. Substitutions count along the parent as printed.", "sequence of UniProt Q9LQE8 (whole entry, looked up)": "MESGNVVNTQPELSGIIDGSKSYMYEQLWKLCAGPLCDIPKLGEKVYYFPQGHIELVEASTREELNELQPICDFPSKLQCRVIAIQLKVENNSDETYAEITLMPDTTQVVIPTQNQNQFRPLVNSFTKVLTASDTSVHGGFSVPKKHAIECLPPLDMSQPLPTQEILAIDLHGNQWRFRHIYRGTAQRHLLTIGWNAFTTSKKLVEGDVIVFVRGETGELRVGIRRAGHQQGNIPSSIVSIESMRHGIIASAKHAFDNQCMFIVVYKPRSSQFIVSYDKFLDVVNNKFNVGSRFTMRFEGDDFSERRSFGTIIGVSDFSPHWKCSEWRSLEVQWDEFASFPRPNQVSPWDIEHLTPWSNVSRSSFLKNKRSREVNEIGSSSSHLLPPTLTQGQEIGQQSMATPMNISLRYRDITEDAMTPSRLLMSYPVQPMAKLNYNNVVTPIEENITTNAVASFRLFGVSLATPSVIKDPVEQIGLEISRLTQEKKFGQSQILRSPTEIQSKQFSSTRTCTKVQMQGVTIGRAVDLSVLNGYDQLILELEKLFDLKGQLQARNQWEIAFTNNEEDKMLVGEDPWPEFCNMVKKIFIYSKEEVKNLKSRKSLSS", "sequence of UniProt O23661 (whole entry, looked up)": "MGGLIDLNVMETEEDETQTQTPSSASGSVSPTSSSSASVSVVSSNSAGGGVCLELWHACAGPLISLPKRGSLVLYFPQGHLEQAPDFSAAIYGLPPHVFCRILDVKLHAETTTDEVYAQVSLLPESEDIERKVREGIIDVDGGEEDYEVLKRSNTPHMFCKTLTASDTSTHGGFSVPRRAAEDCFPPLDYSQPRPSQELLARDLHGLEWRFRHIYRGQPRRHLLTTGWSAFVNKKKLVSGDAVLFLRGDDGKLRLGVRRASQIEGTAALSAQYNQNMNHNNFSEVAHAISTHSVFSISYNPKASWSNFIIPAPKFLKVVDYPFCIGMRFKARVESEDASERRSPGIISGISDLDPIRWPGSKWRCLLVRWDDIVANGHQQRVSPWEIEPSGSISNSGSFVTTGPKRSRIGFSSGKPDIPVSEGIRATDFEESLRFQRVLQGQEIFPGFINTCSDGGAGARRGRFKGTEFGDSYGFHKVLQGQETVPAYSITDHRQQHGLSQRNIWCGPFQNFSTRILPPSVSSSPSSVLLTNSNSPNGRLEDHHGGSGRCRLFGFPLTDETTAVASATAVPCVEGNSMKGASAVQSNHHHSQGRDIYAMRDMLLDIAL", "sequence of UniProt Q8LAL2 (whole entry, looked up)": "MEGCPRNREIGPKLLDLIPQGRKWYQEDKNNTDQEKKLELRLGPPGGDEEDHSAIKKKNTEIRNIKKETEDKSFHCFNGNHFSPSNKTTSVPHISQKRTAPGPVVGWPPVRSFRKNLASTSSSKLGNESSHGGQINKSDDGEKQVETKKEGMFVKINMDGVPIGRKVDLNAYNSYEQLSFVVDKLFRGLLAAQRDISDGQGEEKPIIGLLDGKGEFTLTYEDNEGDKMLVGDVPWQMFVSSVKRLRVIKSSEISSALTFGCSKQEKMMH", "sequence of UniProt Q38830 (whole entry, looked up)": "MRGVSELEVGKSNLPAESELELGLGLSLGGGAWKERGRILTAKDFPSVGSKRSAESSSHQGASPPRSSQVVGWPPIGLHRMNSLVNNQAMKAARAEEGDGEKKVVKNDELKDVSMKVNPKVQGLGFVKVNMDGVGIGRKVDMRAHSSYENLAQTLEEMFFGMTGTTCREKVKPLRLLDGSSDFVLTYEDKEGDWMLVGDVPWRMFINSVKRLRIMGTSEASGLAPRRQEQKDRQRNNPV", "sequence of UniProt P93022 (whole entry, looked up)": "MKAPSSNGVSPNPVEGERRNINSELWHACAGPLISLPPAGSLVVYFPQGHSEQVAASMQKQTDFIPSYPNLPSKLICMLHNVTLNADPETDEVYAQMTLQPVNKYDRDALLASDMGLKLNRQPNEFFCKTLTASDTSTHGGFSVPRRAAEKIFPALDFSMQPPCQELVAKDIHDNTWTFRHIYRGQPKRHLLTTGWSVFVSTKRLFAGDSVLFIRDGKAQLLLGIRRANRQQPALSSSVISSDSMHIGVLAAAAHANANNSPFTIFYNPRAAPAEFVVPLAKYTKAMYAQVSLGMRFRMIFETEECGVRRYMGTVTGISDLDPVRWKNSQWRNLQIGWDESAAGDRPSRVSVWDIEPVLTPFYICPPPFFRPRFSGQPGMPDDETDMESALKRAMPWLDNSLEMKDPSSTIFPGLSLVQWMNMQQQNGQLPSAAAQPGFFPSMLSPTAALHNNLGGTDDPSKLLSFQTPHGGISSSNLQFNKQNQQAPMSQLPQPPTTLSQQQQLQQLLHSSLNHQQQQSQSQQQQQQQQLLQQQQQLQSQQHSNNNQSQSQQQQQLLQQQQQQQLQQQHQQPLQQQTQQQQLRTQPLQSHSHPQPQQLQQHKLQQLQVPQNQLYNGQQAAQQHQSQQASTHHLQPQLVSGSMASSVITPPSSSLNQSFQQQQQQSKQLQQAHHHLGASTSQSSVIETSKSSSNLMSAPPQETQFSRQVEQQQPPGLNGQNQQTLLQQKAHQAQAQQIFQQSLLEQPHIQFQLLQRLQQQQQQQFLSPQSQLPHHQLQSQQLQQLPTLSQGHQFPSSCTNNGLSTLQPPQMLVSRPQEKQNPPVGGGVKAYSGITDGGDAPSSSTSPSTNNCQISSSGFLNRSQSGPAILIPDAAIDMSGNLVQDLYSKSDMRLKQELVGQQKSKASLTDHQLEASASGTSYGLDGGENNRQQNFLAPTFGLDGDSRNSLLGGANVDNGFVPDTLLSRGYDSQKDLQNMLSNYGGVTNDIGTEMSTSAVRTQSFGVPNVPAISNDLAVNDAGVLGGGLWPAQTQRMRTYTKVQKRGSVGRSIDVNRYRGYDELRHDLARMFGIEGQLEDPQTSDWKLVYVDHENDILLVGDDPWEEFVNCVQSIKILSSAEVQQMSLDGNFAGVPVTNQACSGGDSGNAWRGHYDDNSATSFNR"}
{"data": "Sample 1", "target": "UBE2M UBC core domain (UniProt P61081)", "method": "yeast two-hybrid", "sample": "yeast", "setting": "mostly zero background", "baseline": "not given", "direction": "higher = stronger interaction", "B1": "TRIM43 RING domain (UniProt Q96BQ3); chain FSHAFQKELTCVICLNYLVDPVTICCGHSFCRPCLCLSWEEAQSPANCPACREPSPKMDFKT", "B2": "DTX4 RING domain (UniProt Q9Y2E6); chain QKVRHPPDEDCTICMERLTAPSGYKGPQPTVKPDLVGKLSRCGHVYHIYCLVAMYNNGNKDGSLQCPTCKTIYGVKTGTQ", "B3": "TRIM13 RING domain (UniProt O60858); chain MELLEEDLTCPICCSLFDDPRVLPCSHNFCKKCLEGILEGSVRNSLWRPAPFKCPTCRKETSATGINS", "B4": "RNF38 RING domain (UniProt Q9H0F5); chain PNNHQSEQTLCVVCMCDFESRQLLRVLPCNHEFHAKCVDKWLKANRTCPICRADASEVHRDS", "B5": "TRIML1 RING domain (UniProt Q8N9V2); chain LMENLREELTCFICLDYFSSPVTTECGHSFCLVCLLRSWEEHNTPLSCPECWRTLEGPHFQS", "B6": "RNF208 RING domain (UniProt Q9H0X6); chain SSAAAGEPLECPTCGHSYNVTQRRPRVLSCLHSVCEQCLQILYESCPKYKFISCPTCRRETVLFTDYG", "B7": "TRIM24 RING domain (UniProt O15164); chain EAARLNLLDTCAVCHQNIQSRAPKLLPCLHSFCQRCLPAPQRYLMLPAPMLGSAETPPPVPAPGSPVSGSSPFATQVGVIRCPVCSQECAERHII", "B8": "TRIM40 RING domain (UniProt Q6P9F5); chain LQKDNQEEGVCPICQESLKEAVSTNCGHLFCRVCLTQHVEKASASGVFCCPLCRKPCSEEVLG", "B9": "TRIM4 RING domain (UniProt Q9C037); chain EAEDIQEELTCPICLDYFQDPVSIECGHNFCRGCLHRNWAPGGGPFPCPECRHPSAPAALRP", "B10": "MKRN1 RING domain (UniProt Q9UHC7); chain FAVQRSKDMVCGICMEVVYEKANPSERRFGILSNCNHTYCLKCIRKWRSAKQFESKIIKSCPECRITSNFVIPSE", "Target sequence (chain)": "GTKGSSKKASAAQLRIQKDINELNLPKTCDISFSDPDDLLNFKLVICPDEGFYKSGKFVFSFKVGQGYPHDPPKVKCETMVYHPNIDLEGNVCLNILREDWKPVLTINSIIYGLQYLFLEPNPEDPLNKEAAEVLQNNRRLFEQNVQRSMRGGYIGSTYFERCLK"}
{"Sequence": "B1 (TRIM43 RING domain)", "lacZ reporter activity": 0}
{"Sequence": "ASLPTSEEDLCPICYAHPISAVFQPCGHKSCKACINQHLMNNKDCFFCKTTIVSVEDWE (RNF123 RING domain (UniProt Q5XPI4))", "lacZ reporter activity": 0}
{"Sequence": "B2 (DTX4 RING domain)", "lacZ reporter activity": 0}
{"Sequence": "FQGDVDEDLICPICSGVLEEPVQAPHCEHAFCNACITQWFSQQQTCPVDRSVVTVAHLRP (RNF41 RING domain (UniProt Q9H4P4))", "lacZ reporter activity": 0}
{"Sequence": "B3 (TRIM13 RING domain)", "lacZ reporter activity": 0}
{"Sequence": "B4 (RNF38 RING domain)", "lacZ reporter activity": 0}
{"Sequence": "MPIRALCTICSDFFDHSRDVAAIHCGHTFHLQCLIQWFETAPSRTCPQCRIQVGKRTIIN (TRAIP RING domain (UniProt Q9BWF2))", "lacZ reporter activity": 0}
{"Sequence": "B5 (TRIML1 RING domain)", "lacZ reporter activity": 0}
{"Sequence": "B6 (RNF208 RING domain)", "lacZ reporter activity": 0}
{"Sequence": "B7 (TRIM24 RING domain)", "lacZ reporter activity": 0}
{"Sequence": "B8 (TRIM40 RING domain)", "lacZ reporter activity": 0}
{"Sequence": "PAELEVQASECVVCLEREAQMIFLNCGHVCCCQQCCQPLRTCPLCRQDIAQRLRIY (LRSAM1 RING domain (UniProt Q6UWE0))", "lacZ reporter activity": 0}
{"Sequence": "DHGAVGQEMCCPICCSEYVKGEVATELPCHHYFHKPCVSIWLQKSGTCPVCRCMFPPPL (PJA1 RING domain (UniProt Q8NG27))", "lacZ reporter activity": 0}
{"Sequence": "VEPSEENSKDCVVCQNGTVNWVLLPCRHTCLCDGCVKYFQQCPMCRQFVQESFALC (CGRRF1 RING domain (UniProt Q99675))", "lacZ reporter activity": 0}
{"Sequence": "B9 (TRIM4 RING domain)", "lacZ reporter activity": 0}
{"Sequence": "B10 (MKRN1 RING domain)", "lacZ reporter activity": 0}
{"data": "Sample 2", "target": "CCND3, cyclin fold, Cln2 fusion (human)", "method": "yeast growth competition, sequencing", "sample": "yeast", "setting": "weak parent motif", "baseline": "not given", "direction": "higher = stronger binding", "starting sequence": "CDC6 docking peptide (human); TLKGRRLVFDNQL"}
{"Substitution": "K3A", "normalised enrichment score": 0.126}
{"Substitution": "K3S", "normalised enrichment score": 0.131}
{"Substitution": "L2F", "normalised enrichment score": 0.0106}
{"Substitution": "N11V", "normalised enrichment score": 0.108}
{"Substitution": "L2P", "normalised enrichment score": 0.0974}
{"Substitution": "L2G", "normalised enrichment score": 0.124}
{"Substitution": "R6V", "normalised enrichment score": 0.224}
{"Substitution": "Q12H", "normalised enrichment score": 0.0982}
{"Substitution": "D10G", "normalised enrichment score": 0.0885}
{"Substitution": "L2E", "normalised enrichment score": 0.0588}
{"Substitution": "K3D", "normalised enrichment score": 0.0439}
{"Substitution": "N11D", "normalised enrichment score": 0.139}
{"Substitution": "R6Q", "normalised enrichment score": 0.0823}
{"Substitution": "L13R", "normalised enrichment score": 0.0964}
{"Substitution": "T1E", "normalised enrichment score": 0.0998}
{"Substitution": "D10S", "normalised enrichment score": 0.199}
{"Substitution": "L2S", "normalised enrichment score": 0.00951}
{"Substitution": "F9T", "normalised enrichment score": 0.0909}
{"Substitution": "G4C", "normalised enrichment score": 0.213}
{"Substitution": "G4K", "normalised enrichment score": 0.0601}
{"Substitution": "R5A", "normalised enrichment score": 0.134}
{"Substitution": "F9K", "normalised enrichment score": 0.264}
{"Substitution": "T1C", "normalised enrichment score": 0.0697}
{"Substitution": "D10P", "normalised enrichment score": 0.0566}
{"Substitution": "N11H", "normalised enrichment score": 0.0519}
{"data": "Sample 3", "Sequence": "B11 (IAA8)", "method": "two-hybrid", "direction": "higher = firmer interaction", "B11": "IAA8 (Arabidopsis thaliana, UniProt Q38826); chain MSYRLLSVDKDELVTSPCLKERNYLGLSDCSSVDSSTIPNVVGKSNLNFKATELRLGLPESQSPERETDFGLLSPRTPDEKLLFPLLPSKDNGSATTGHKNVVSGNKRGFADTWDEFSGVKGSVRPGGGINMMLSPKVKDVSKSIQEERSHAKGGLNNAPAAKAQVVGWPPIRSYRKNTMASSTSKNTDEVDGKPGLGVLFVKVSMDGAPYLRKVDLRTYTSYQQLSSALEKMFSCFTLGQCGLHGAQGRERMSEIKLKDLLHGSEFVLTYEDKDGDWMLVGDVPWEIFTETCQKLKIMKGSDSIGLAPGAVEKSKNKERV"}
{"partner": "ARF14 497-605 (Arabidopsis thaliana, UniProt Q9LQE8)", "baseline": "out of 2 tests", "positive tests": 0}
{"partner": "ETT (Arabidopsis thaliana, UniProt O23661)", "baseline": "out of 2 tests", "positive tests": 0}
{"partner": "IAA12 (Arabidopsis thaliana, UniProt Q38830)", "baseline": "out of 4 tests", "positive tests": 4}
{"partner": "IAA26 (Arabidopsis thaliana, UniProt Q8LAL2)", "baseline": "out of 2 tests", "positive tests": 0}
{"partner": "ARF7 1030-1164 (Arabidopsis thaliana, UniProt P93022)", "baseline": "out of 2 tests", "positive tests": 2}
{"data": "Sample 4", "target": "ABI1, truncated, D143A, DHFR fusion (Arabidopsis thaliana)", "method": "DHFR PCA, deep sequencing", "sample": "yeast", "setting": "methotrexate growth selection, single substitutions", "with": "(+)-ABA 17 µM", "baseline": "wild-type fitted maximum", "direction": "higher = stronger binding", "starting sequence": "PYL1, truncated, DHFR fusion (Arabidopsis thaliana); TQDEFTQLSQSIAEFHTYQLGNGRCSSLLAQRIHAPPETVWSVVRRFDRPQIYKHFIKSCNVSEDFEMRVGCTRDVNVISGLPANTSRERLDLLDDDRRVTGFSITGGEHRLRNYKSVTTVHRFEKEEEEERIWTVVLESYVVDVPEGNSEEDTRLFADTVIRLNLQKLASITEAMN"}
{"Substitution": "P83V", "relative binding score": "-0.0617%"}
{"Substitution": "Y18G", "relative binding score": "46.4%"}
{"Substitution": "E139L", "relative binding score": "40.8%"}
{"Substitution": "N61I", "relative binding score": "86.9%"}
{"Substitution": "V145F", "relative binding score": "9.64%"}
{"Substitution": "G107Q", "relative binding score": "32.5%"}
{"Substitution": "E128R", "relative binding score": "80.5%"}
{"Substitution": "N77R", "relative binding score": "94.4%"}
{"Substitution": "A170W", "relative binding score": "19.1%"}
{"Substitution": "T135P", "relative binding score": "15%"}
{"Substitution": "R99H", "relative binding score": "92%"}
{"Substitution": "E109I", "relative binding score": "67%"}
{"Substitution": "S27L", "relative binding score": "-0.0691%"}
{"Substitution": "F15V", "relative binding score": "23.7%"}
{"Substitution": "S150F", "relative binding score": "16.5%"}
{"Substitution": "R74M", "relative binding score": "-1.35%"}
{"Substitution": "N165L", "relative binding score": "-7.61%"}
{"note": "For quick reference, copied from above (sample 1):"}
{"Sequence": "B1 (TRIM43 RING domain)", "lacZ reporter activity": 0}
{"Sequence": "B4 (RNF38 RING domain)", "lacZ reporter activity": 0}
{"Sequence": "PAELEVQASECVVCLEREAQMIFLNCGHVCCCQQCCQPLRTCPLCRQDIAQRLRIY (LRSAM1 RING domain (UniProt Q6UWE0))", "lacZ reporter activity": 0}
{"Sequence": "B3 (TRIM13 RING domain)", "lacZ reporter activity": 0}
{"Sequence": "FQGDVDEDLICPICSGVLEEPVQAPHCEHAFCNACITQWFSQQQTCPVDRSVVTVAHLRP (RNF41 RING domain (UniProt Q9H4P4))", "lacZ reporter activity": 0}
{"Sequence": "B2 (DTX4 RING domain)", "lacZ reporter activity": 0}
{"Sequence": "B9 (TRIM4 RING domain)", "lacZ reporter activity": 0}
{"Sequence": "ASLPTSEEDLCPICYAHPISAVFQPCGHKSCKACINQHLMNNKDCFFCKTTIVSVEDWE (RNF123 RING domain (UniProt Q5XPI4))", "lacZ reporter activity": 0}
